Assay results of several laboratories.
Compare with care: the assays were run in different laboratories. ± gives the spread as reported.
Organism: Klebsiella pneumoniae

`CN1/C(=C/C=C/c2cc(-c3ccccc3)cc(-c3ccccc3)[o+]2)C(C)(C)c2ccccc21` has an MIC of 16 µg/mL (broth dilution; NR-15411, KPC).
The MIC of `CC(C)C[C@H](NC(=O)[C@H](Cc1ccc(O)cc1)NC(=O)[C@@H]1CCCN1C(=O)[C@H](CCCNC(=N)N)NC(=O)[C@@H]1CCCN1C(=O)[C@H](CCCCN)NC(=O)[C@H](CC(=O)O)NC(=O)[C@@H]1CCCN1C(=O)[C@H](CCCNC(=N)N)NC(=O)C1(N)CCCCC1)C(=O)N1CCC[C@H]1C(=O)N[C@@H](CCCNC(=N)N)C(=O)N1CCC[C@H]1C(=O)N[C@@H](CCCNC(=N)N)C(=O)N1CCC[C@H]1C(=O)N1CCC[C@H]1C(=O)N[C@@H](CCCNC(=N)N)C(=O)N1CCC[C@H]1C(=O)N[C@H](C(=O)N[C@@H](CCCNC(=N)N)C(=O)N[C@@H](CSc1c(F)c(F)c(SC[C@H](NC(=O)[C@H](CCCNC(=N)N)NC(=O)[C@@H](NC(=O)[C@@H]2CCCN2C(=O)[C@H](CCCNC(=N)N)NC(=O)[C@@H]2CCCN2C(=O)[C@@H]2CCCN2C(=O)[C@H](CCCNC(=N)N)NC(=O)[C@@H]2CCCN2C(=O)[C@H](CCCNC(=N)N)NC(=O)[C@@H]2CCCN2C(=O)[C@H](CC(C)C)NC(=O)[C@H](Cc2ccc(O)cc2)NC(=O)[C@@H]2CCCN2C(=O)[C@H](CCCNC(=N)N)NC(=O)[C@@H]2CCCN2C(=O)[C@H](CCCCN)NC(=O)[C@H](CC(=O)O)NC(=O)[C@@H]2CCCN2C(=O)[C@H](CCCNC(=N)N)NC(=O)C2(N)CCCCC2)C(C)C)C(=O)NN)c(F)c1F)C(=O)NN)C(C)C` is reported as 3.6 ± 0.1 µg/mL (bacterial growth; ATCC 13883, 100% Mueller-Hinton broth; 90 min, 37 °C, strain ATCC 13883).
The MIC of `CC[C@@H](C)[C@@H](NC(=O)[C@@H](C)NC(=O)[C@H](NC(=O)[C@@H](CC(=O)O)NC(=O)[C@@H](CCCCN)NC(=O)[C@@H](CO)NC(=O)[C@H](NC(=O)[C@@H](CC(N)=O)NC(=O)[C@@H](C)NC(=O)[C@H](NC(=O)[C@@H](CCC(=O)O)NC(=O)[C@@H](CCCCN)NC(=O)[C@H](NC(=O)[C@H](NC(=O)[C@@H](Cc1c[nH]cn1)NC(=O)[C@@H](CCCCN)NC(=O)[C@H](NC(=O)[C@@H](CCCCN)NC(=O)[C@@H](CCCCN)NC(=O)[C@H](NC(=O)[C@@H](CC(C)C)NC(=O)[C@@H](CCCCN)NC(=O)[C@@H](CC(N)=O)NC(=O)[C@@H](Cc1ccccc1)NC(=O)[C@@H](CCCNC(=N)N)NC(=O)[C@@H](CCCCN)NC(=O)[C@@H](CCCNC(=N)N)NC(=O)[C@@H](Cc1ccccc1)NC(=O)CN)C(C)C)C(C)C)[C@H](C)O)[C@H](C)CC)[C@H](C)O)C(C)C)C(C)C)C(=O)N[C@@H](C(=O)N[C@H](C)C(=O)NCC(=O)N[C@H](CO)C(=O)NCC(=O)N[C@@H](C(=O)N[C@H](C)C(=O)N[C@@H](C(=O)NCC(=O)N[C@H](C)C(=O)N[C@H](C)C(=O)N[C@H](CCSC)C(N)=O)C(C)C)C(C)C)C(C)C` is reported as 16 µg/mL (isolate RKI 93/10, CAMHB).
With `COc1ccc2ccc3c(c2c1)C=[N+]1C2CCCCC2[N+]2=Cc4c(F)cccc4[O][Au-]21[O]3.F[P-](F)(F)(F)(F)F` (centres unmarked) the MIC was greater than 20 µM (bacterial growth, broth microdilution; carbapenem-resistant; 24 h).
With `CCCCCCCCCCCCCC(=O)N[C@H](CCN)C(=O)N[C@H](C(=O)N[C@@H](CCN)C(=O)N[C@@H](CC(C)C)C(=O)N[C@@H](CCN)C(=O)N[C@H](Cc1ccccc1)C(=O)N[C@@H](CC(C)C)C(=O)N[C@@H](CCN)C(=O)N[C@H](Cc1ccc(O)cc1)C(=O)N[C@H](C(=O)N[C@@H](CC(=O)O)C(=O)O)C(C)C)[C@@H](C)O` the MIC was 4 µg/mL (broth microdilution; BNCC 186113).
The MIC of `C[C@@](O)(C(F)F)[C@H](NC(=O)c1ccc(C#CC#CC2CC2)cc1)C(=O)NO` is reported as 0.0025 µg/mL (broth microdilution; 10031, CAMHB).
The MIC of `c1ccc(CN2CCOCCOCCN(CCCCCCCCCCCCCCN3CCOCCOCCN(CCCCCCCCCCCCCCN4CCOCCOCCN(Cc5ccccc5)CCOCCOCC4)CCOCCOCC3)CCOCCOCC2)cc1` is reported as 24 µM (KPC-2).
For `COc1ccc2ccc3c(c2c1)C=[N+]1C2CCCCC2[N+]2=Cc4cc(C)ccc4[O][Au-]21[O]3.F[P-](F)(F)(F)(F)F` (centres unmarked), the MIC was greater than 20 µM (bacterial growth, broth microdilution; carbapenem-resistant clinical isolate; 24 h).
The MIC of `C[C@H]1COc2c(N3CCN(C)CC3)c(F)cc3c(=O)c(C(=O)N[C@@H](CCCNC(=N)N)C(=O)N[C@@H](Cc4ccc(-c5ccccc5)cc4)C(=O)N[C@@H](CCCNC(=N)N)C(=O)N[C@@H](Cc4ccc(-c5ccccc5)cc4)C(=O)N[C@@H](CCCNC(=N)N)C(N)=O)cn1c23` is reported as 20 µM (broth microdilution; ATCC 2814; 18 h, 37 °C).
The MIC of `CC(C)[C@H](NC(=O)[C@H](CCCNC(=N)N)NC(=O)[C@H](CCCNC(=N)N)NC(=O)[C@@H](NC(=O)[C@H](C)NC(=O)[C@H](CC(N)=O)NC(=O)[C@H](CCCNC(=N)N)NC(=O)[C@@H](NC(=O)[C@H](CCCNC(=N)N)NC(=O)[C@H](CCCNC(=N)N)NC(=O)[C@@H](NC(=O)[C@@H](NC(=O)[C@H](CCCNC(=N)N)NC(=O)[C@H](CCCNC(=N)N)NC(=O)[C@H](Cc1c[nH]c2ccccc12)NC(=O)[C@H](Cc1c[nH]c2ccccc12)NC(=O)CN)[C@@H](C)O)C(C)C)C(C)C)C(C)C)C(=O)O` is reported as 128 µg/mL (ATCC 10031; 18 h, 37 °C).
The MIC of `COc1ccc2ccc3c(c2c1)C=[N+]1C2CCCCC2[N+]2=Cc4ccc(F)cc4[O][Au-]21[O]3.F[P-](F)(F)(F)(F)F` (centres unmarked) is reported as 10 µM (bacterial growth, broth microdilution; carbapenem-resistant clinical isolate; 24 h).
For `CC(C)C[C@H](NC(=O)[C@H](C)NC(=O)CNC(=O)[C@@H](NC(=O)[C@@H](NC(=O)[C@H](CCCCN)NC(=O)[C@H](CCCCN)NC(=O)[C@H](CC(C)C)NC(=O)[C@H](CC(C)C)NC(=O)[C@H](CCCCN)NC(=O)[C@H](CC(C)C)NC(=O)[C@H](CC(C)C)NC(=O)[C@@H](N)CCCCN)C(C)C)C(C)C)C(=O)NCC(N)=O`, the MIC was 22 µM (ATCC 700603, CAMHB; 18 h, 37 °C).
`COc1ccc2ccc3c(c2c1)C=[N+]1C2CCCCC2[N+]2=Cc4ccc(-c5ccccc5)cc4[O][Au-]21[O]3.F[P-](F)(F)(F)(F)F` (centres unmarked) gave an MIC of greater than 20 µM (bacterial growth, broth microdilution; carbapenem-resistant; 24 h).
The MIC of `Cc1cc(N)c2cc(NC(=O)c3ccc4c(-c5ccccc5O)cccc4c3)ccc2n1` is reported as 100 µM (ATCC 13883).

Excerpt of the above:
The MIC of `CC(C)C[C@H](NC(=O)[C@H](Cc1ccc(O)cc1)NC(=O)[C@@H]1CCCN1C(=O)[C@H](CCCNC(=N)N)NC(=O)[C@@H]1CCCN1C(=O)[C@H](CCCCN)NC(=O)[C@H](CC(=O)O)NC(=O)[C@@H]1CCCN1C(=O)[C@H](CCCNC(=N)N)NC(=O)C1(N)CCCCC1)C(=O)N1CCC[C@H]1C(=O)N[C@@H](CCCNC(=N)N)C(=O)N1CCC[C@H]1C(=O)N[C@@H](CCCNC(=N)N)C(=O)N1CCC[C@H]1C(=O)N1CCC[C@H]1C(=O)N[C@@H](CCCNC(=N)N)C(=O)N1CCC[C@H]1C(=O)N[C@H](C(=O)N[C@@H](CCCNC(=N)N)C(=O)N[C@@H](CSc1c(F)c(F)c(SC[C@H](NC(=O)[C@H](CCCNC(=N)N)NC(=O)[C@@H](NC(=O)[C@@H]2CCCN2C(=O)[C@H](CCCNC(=N)N)NC(=O)[C@@H]2CCCN2C(=O)[C@@H]2CCCN2C(=O)[C@H](CCCNC(=N)N)NC(=O)[C@@H]2CCCN2C(=O)[C@H](CCCNC(=N)N)NC(=O)[C@@H]2CCCN2C(=O)[C@H](CC(C)C)NC(=O)[C@H](Cc2ccc(O)cc2)NC(=O)[C@@H]2CCCN2C(=O)[C@H](CCCNC(=N)N)NC(=O)[C@@H]2CCCN2C(=O)[C@H](CCCCN)NC(=O)[C@H](CC(=O)O)NC(=O)[C@@H]2CCCN2C(=O)[C@H](CCCNC(=N)N)NC(=O)C2(N)CCCCC2)C(C)C)C(=O)NN)c(F)c1F)C(=O)NN)C(C)C` is reported as 3.6 ± 0.1 µg/mL (bacterial growth; ATCC 13883, 100% Mueller-Hinton broth; 90 min, 37 °C, strain ATCC 13883).
